# Measured values collected from several papers.
# Numbered parts are unrelated; each lists some results of a single study. Values joined by “and” are separate records of one study, mostly repeats; a detail may differ. Positions count from the first letter of the parent shown.
# Sequence of UniProt Q12866 (whole entry, looked up): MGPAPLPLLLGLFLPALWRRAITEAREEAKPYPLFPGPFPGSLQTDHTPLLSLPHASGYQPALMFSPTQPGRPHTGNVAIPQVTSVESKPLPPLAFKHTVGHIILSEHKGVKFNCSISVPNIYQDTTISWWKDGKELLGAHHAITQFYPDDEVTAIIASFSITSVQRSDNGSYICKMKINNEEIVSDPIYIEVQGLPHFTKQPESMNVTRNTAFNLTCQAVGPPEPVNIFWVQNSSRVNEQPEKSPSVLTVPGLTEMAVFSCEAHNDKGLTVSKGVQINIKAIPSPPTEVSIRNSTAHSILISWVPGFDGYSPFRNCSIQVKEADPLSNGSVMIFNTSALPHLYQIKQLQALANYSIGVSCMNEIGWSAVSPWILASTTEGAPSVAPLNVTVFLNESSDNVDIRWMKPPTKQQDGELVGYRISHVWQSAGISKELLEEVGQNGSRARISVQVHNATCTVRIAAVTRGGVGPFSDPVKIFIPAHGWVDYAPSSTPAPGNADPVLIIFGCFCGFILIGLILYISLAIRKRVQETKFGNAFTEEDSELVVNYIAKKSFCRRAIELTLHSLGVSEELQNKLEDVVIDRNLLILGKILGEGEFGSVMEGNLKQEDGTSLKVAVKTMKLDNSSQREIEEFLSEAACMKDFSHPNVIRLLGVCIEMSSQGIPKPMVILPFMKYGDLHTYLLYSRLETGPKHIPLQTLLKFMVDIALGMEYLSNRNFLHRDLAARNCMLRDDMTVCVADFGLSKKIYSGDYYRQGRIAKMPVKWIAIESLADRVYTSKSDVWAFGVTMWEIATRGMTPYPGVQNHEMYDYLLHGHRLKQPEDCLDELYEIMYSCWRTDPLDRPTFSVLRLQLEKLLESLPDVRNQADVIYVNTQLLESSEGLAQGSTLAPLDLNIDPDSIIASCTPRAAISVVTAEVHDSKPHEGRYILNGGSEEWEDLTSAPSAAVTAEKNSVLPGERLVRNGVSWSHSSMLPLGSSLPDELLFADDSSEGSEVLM
# Sequence of UniProt Q9BXA7 (whole entry, looked up): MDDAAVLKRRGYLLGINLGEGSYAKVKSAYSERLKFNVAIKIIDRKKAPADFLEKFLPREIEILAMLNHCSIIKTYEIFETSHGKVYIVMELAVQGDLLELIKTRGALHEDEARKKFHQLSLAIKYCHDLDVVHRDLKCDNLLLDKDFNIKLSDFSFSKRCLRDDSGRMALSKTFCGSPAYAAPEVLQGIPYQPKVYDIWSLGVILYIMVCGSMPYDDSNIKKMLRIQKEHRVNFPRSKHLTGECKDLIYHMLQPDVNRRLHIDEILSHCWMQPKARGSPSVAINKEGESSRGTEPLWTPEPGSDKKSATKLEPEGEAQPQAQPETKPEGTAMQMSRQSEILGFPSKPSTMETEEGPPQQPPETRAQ
# Sequence of UniProt P49137 (whole entry, looked up): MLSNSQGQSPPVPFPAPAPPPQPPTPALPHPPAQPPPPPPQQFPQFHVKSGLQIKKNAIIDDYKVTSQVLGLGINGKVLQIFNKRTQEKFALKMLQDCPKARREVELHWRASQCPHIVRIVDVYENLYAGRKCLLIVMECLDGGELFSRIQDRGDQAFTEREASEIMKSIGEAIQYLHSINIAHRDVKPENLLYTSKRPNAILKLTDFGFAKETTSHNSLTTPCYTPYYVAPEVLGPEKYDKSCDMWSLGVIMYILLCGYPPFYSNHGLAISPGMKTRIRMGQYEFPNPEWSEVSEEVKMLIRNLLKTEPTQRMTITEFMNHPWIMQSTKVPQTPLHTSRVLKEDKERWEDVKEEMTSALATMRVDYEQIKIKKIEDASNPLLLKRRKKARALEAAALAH
# Sequence of UniProt O14965 (whole entry, looked up): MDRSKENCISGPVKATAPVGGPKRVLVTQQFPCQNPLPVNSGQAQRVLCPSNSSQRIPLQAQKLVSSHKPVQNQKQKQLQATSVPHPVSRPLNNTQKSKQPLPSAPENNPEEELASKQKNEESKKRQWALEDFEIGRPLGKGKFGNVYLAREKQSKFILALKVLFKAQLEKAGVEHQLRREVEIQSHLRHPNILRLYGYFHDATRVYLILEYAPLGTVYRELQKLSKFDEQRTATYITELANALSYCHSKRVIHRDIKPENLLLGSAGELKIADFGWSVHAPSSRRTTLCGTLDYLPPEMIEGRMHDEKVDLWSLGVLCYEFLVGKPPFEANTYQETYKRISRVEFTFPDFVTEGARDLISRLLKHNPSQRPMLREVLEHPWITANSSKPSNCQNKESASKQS
# Sequence of UniProt P78368 (whole entry, looked up): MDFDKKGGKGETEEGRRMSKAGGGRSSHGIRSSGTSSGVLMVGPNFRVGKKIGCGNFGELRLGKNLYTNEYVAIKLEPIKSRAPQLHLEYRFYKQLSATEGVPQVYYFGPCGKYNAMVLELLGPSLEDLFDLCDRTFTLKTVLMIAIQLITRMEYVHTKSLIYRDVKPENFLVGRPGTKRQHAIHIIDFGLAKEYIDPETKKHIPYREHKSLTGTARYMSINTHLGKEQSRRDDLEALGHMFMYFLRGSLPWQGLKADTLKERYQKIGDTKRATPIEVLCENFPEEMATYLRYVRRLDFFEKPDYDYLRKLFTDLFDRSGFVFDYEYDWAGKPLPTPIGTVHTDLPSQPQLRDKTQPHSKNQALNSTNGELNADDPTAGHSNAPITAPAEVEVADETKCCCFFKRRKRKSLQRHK
# Sequence of UniProt Q9UL54 (whole entry, looked up): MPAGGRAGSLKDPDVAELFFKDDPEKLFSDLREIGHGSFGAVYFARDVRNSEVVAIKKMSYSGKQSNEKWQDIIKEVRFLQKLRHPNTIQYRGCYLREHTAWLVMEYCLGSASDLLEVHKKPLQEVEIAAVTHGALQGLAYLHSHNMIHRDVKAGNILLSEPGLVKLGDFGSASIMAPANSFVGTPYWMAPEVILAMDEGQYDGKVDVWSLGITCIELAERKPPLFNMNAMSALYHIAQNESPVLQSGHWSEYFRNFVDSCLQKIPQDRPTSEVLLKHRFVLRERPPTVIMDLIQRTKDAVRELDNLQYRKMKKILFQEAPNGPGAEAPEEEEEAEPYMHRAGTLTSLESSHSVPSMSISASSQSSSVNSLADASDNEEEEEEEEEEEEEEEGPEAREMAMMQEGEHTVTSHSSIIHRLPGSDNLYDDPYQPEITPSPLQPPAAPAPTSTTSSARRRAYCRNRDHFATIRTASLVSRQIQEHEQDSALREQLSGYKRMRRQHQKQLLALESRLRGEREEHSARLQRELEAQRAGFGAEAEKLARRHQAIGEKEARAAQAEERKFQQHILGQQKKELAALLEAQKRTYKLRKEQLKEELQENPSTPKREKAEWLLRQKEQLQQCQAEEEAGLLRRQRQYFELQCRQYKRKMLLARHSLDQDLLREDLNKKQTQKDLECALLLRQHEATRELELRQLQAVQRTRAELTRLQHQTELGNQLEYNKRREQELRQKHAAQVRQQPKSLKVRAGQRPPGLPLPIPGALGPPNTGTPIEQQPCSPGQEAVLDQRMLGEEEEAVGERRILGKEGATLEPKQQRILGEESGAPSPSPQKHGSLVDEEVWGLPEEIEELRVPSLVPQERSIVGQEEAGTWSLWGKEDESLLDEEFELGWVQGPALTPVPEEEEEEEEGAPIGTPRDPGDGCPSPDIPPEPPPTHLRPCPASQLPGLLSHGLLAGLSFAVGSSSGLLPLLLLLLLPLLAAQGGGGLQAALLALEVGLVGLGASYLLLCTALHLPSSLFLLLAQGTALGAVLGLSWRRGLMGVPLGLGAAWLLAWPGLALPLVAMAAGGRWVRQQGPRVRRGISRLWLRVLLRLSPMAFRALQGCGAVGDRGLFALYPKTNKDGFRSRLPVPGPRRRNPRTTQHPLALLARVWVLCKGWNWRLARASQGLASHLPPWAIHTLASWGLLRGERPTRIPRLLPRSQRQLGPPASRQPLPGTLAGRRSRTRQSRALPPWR
# Sequence of UniProt Q15831 (whole entry, looked up): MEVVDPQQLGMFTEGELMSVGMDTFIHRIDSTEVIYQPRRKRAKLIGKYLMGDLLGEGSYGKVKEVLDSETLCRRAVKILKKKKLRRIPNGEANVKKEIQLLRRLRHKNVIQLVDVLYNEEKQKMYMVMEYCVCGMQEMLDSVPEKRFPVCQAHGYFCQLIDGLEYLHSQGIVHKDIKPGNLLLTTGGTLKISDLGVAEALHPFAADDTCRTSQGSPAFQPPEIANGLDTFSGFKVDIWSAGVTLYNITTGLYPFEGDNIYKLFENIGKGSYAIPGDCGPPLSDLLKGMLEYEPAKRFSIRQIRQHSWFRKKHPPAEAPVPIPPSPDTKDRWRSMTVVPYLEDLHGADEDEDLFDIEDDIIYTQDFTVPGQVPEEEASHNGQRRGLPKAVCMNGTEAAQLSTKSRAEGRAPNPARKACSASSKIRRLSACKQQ

# Series 1
# SMILES: Cn1cncc1[C@](O)(COc1ccc(C#N)cc1-c1ccc(OC(F)(F)F)cc1)c1ccc(C#N)cc1
# Effect on: cell-free assay
# Method: competition with immobilised ligand
# Concentration: 1 µM
target,remaining binding
"STK11 (Homo sapiens, UniProt Q15831)",71%
"TSSK1B (Homo sapiens, UniProt Q9BXA7)",100%
"FLT3 (Homo sapiens, UniProt P36888, D835V)",100%
"Aurora kinase A (AURKA, Homo sapiens, UniProt O14965)",95%

# Series 2
# SMILES: COc1ccc2c(c1)/C(=C/c1cnc[nH]1)C(=O)N2
# Effect on: enzyme activity
# Action: inhibitor
# Concentration: 0.5 µM
# Relative to: control
target,remaining activity [%]
"MAP3K5 (Homo sapiens, UniProt Q99683)",103
"MAPKAPK2 (Homo sapiens, UniProt P49137)",99.4
"TAOK2 (Homo sapiens, UniProt Q9UL54)",81.8
"MERTK (Homo sapiens, UniProt Q12866)",84.7
"CSNK1G2 (Homo sapiens, UniProt P78368)",95.3

# Series 3
# Target: CCNA1, cyclin fold, Cln2 fusion (human)
# Method: yeast growth competition, sequencing
# Medium: yeast
# Setting: weak parent motif
# Relative to: not given
# Reading: higher = stronger binding
# Starting sequence: viral docking peptide; KGVKRKLFAEDSS
Variant,normalised enrichment score
D11Y,0.873
D11S,1.34
K6Y,0.0608
V3H,0.189
G2S,1.2
E10F,0.35
V3C,0.992
D11T,0.841

# Mixed results
# Effect on: necroptosis protection
# Method: CCK-8
SMILES,cell line,conditions,viability
CC(C)S(=O)(=O)c1ccc2nccc(Nc3ccc4sc(C5CCCC5)nc4c3)c2c1,L929,"0.313 µM, with: TNF-α plus zVAD",34.3%
N#Cc1c(Oc2ccc(F)c(NC(=O)Cc3cccc(C(F)(F)F)c3)c2)ccc2nc(NC(=O)C3CC3)sc12,L929,"5 µM, with: TNF-α-induced",66.9%
CC(C)S(=O)(=O)c1ccc2nccc(Nc3ccc4scnc4c3)c2c1,L929,"10 µM, with: TNF-α plus zVAD",71.7%
CC[C@H](C)c1nc2cc(Nc3ccnc4ccc(S(=O)(=O)C(C)C)cc34)ccc2s1.Cl,HT-29,"0.156 µM, with: TNF-α SMAC mimetic zVAD",19.8% and 12% and 16.8% and 15.8%

# Some of these lines once more (mixed results):
SMILES,cell line,conditions,viability
CC(C)S(=O)(=O)c1ccc2nccc(Nc3ccc4sc(C5CCCC5)nc4c3)c2c1,L929,"0.313 µM, with: TNF-α plus zVAD",34.3%
CC[C@H](C)c1nc2cc(Nc3ccnc4ccc(S(=O)(=O)C(C)C)cc34)ccc2s1.Cl,HT-29,"0.156 µM, with: TNF-α SMAC mimetic zVAD",19.8% and 12% and 16.8% and 15.8%
CC(C)S(=O)(=O)c1ccc2nccc(Nc3ccc4scnc4c3)c2c1,L929,"10 µM, with: TNF-α plus zVAD",71.7%
